{"data": "Measurements from different studies", "partner": "itself", "B1": "SOAT1 (Homo sapiens, UniProt P35610); sequence looked up; chain MVGEEKMSLRNRLSKSRENPEEDEDQRNPAKESLETPSNGRIDIKQLIAKKIKLTAEAEELKPFFMKEVGSHFDDFVTNLIEKSASLDNGGCALTTFSVLEGEKNNHRAKDLRAPPEQGKIFIARRSLLDELLEVDHIRTIYHMFIALLILFILSTLVVDYIDEGRLVLEFSLLSYAFGKFPTVVWTWWIMFLSTFSVPYFLFQHWATGYSKSSHPLIRSLFHGFLFMIFQIGVLGFGPTYVVLAYTLPPASRFIIIFEQIRFVMKAHSFVRENVPRVLNSAKEKSSTVPIPTVNQYLYFLFAPTLIYRDSYPRNPTVRWGYVAMKFAQVFGCFFYVYYIFERLCAPLFRNIKQEPFSARVLVLCVFNSILPGVLILFLTFFAFLHCWLNAFAEMLRFGDRMFYKDWWNSTSYSNYYRTWNVVVHDWLYYYAYKDFLWFFSKRFKSAAMLAVFAVSAVVHEYALAVCLSFFYPVLFVLFMFFGMAFNFIVNDSRKKPIWNVLMWTSLFLGNGVLLCFYSQEWYARQHCPLKNPTFLDYVRPRSWTCRYVF", "B2": "SPA2 389-535 (Saccharomyces cerevisiae, UniProt P23201); Alexa 488 label; sequence looked up; chain LKITDGFISKYSSADGLIPAQYILNANNLIIQFTTRLSAVPIGDSTAISHQIGEELFQILSQLSNLISQLLLSADLLQYKDQVILLKASLSHAITSIRYFSVYGPVLIPKITVQAAVSEVCFAMCNLIDSAKIKSDSNGESTTSNEG", "B3": "clcA 1-465 (Escherichia coli, UniProt P37019); chain MKTDTPSLETPQAARLRRRQLIRQLLERDKTPLAILFMAAVVGTLVGLAAVAFDKGVAWLQNQRMGALVHTADNYPLLLTVAFLCSAVLAMFGYFLVRKYAPEAGGSGIPEIEGALEDQRPVRWWRVLPVKFFGGLGTLGGGMVLGREGPTVQIGGNIGRMVLDIFRLKGDEARHTLLATGAAAGLAAAFNAPLAGILFIIEEMRPQFRYTLISIKAVFIGVIMSTIMYRIFNHEVALIDVGKLSDAPLNTLWLYLILGIIFGIFGPIFNKWVLGMQDLLHRVHGGNITKWVLMGGAIGGLCGLLGFVAPATSGGGFNLIPIATAGNFSMGMLVFIFVARVITTLLCFSSGAPGGIFAPMLALGTVLGTAFGMVAVELFPQYHLEAGTFAIAGMGALLAASIRAPLTGIILVLEMTDNYQLILPMIITGLGATLLAQFTGGKPLYSAILARTLAKQEAEQLARSK", "B4": "REC107 138-224 (Saccharomyces cerevisiae, UniProt P21651); chain KTKSDSSYRQVLVEEISRYNSKITRHVTNKQHETEKSMRCTQEMLFNVGSQLEDVHKVLLSLSKDMHSLQTRQTALEMAFREKADHA", "B5": "sso0001 1-202 C188A (Sulfolobus solfataricus, UniProt Q97TX9); chain MITEFLLKKKLEEHLSHVKEENTIYVTDLVRCPRRVRYESEYKELAISQVYAPSAILGDILHLGLESVLKGNFNAETEVETLREINVGGKVYKIKGRADAIIRNDNGKSIVIEIKTSRSDKGLPLIHHKMQLQIYLWLFSAEKGILVYITPDRIAEYEINEPLDEATIVRLAEDTIMLQNSPRFNWEAKYCIFSVICPAKLT", "B6": "ITM2B 113-231 (Homo sapiens, UniProt Q9Y287); sequence looked up; chain QTIEENIKIFEEEEVEFISVPVPEFADSDPANIVHDFNKKLTAYLDLNLDKCYVIPLNTSIVMPPRNLLELLINIKAGTYLPQSYLIHEHMVITDRIENIDHLGFFIYRLCHDKETYKL", "B7": "GGPS1 Y246D (Homo sapiens, UniProt O95749); sequence looked up; chain MEKTQETVQRILLEPYKYLLQLPGKQVRTKLSQAFNHWLKVPEDKLQIIIEVTEMLHNASLLIDDIEDNSKLRRGFPVAHSIYGIPSVINSANYVYFLGLEKVLTLDHPDAVKLFTRQLLELHQGQGLDIYWRDNYTCPTEEEYKAMVLQKTGGLFGLAVGLMQLFSDYKEDLKPLLNTLGLFFQIRDDYANLHSKEYSENKSFCEDLTEGKFSFPTIHAIWSRPESTQVQNILRQRTENIDIKKDCVHYLEDVGSFEYTRNTLKELEAKAYKQIDARGGNPELVALVKHLSKMFKEENE", "B8": "Cas11 (Escherichia coli, UniProt P76632); sequence looked up; chain MADEIDAMALYRAWQQLDNGSCAQIRRVSEPDELRDIPAFYRLVQPFGWENPRHQQALLRMVFCLSAGKNVIRHQDKKSEQTTGISLGRALANSGRINERRIFQLIRADRTADMVQLRRLLTHAEPVLDWPLMARMLTWWGKRERQQLLEDFVLTTNKNA", "B9": "Per2 1-320 (Mus musculus, UniProt O54943); sequence looked up; chain MNGYVDFSPSPTSPTKEPGAPQPTQAVLQEDVDMSSGSSGNENCSTGRDSQGSDCDDNGKELRMLVESSNTHPSPDDAFRLMMTEAEHNPSTSGCSSEQSAKADAHKELIRTLKELKVHLPADKKAKGKASTLATLKYALRSVKQVKANEEYYQLLMSSESQPCSVDVPSYSMEQVEGITSEYIVKNADMFAVAVSLVSGKILYISNQVASIFHCKKDAFSDAKFVEFLAPHDVSVFHSYTTPYKLPPWSVCSGLDSFTQECMEEKSFFCRVSVGKHHENEIRYQPFRMTPYLVKVQEQQGAESQLCCLLLAERVHSGYE", "B10": "clcA 1-465 C85A/H234C/L198A (Escherichia coli, UniProt P37019); chain MKTDTPSLETPQAARLRRRQLIRQLLERDKTPLAILFMAAVVGTLVGLAAVAFDKGVAWLQNQRMGALVHTADNYPLLLTVAFLASAVLAMFGYFLVRKYAPEAGGSGIPEIEGALEDQRPVRWWRVLPVKFFGGLGTLGGGMVLGREGPTVQIGGNIGRMVLDIFRLKGDEARHTLLATGAAAGLAAAFNAPLAGIAFIIEEMRPQFRYTLISIKAVFIGVIMSTIMYRIFNCEVALIDVGKLSDAPLNTLWLYLILGIIFGIFGPIFNKWVLGMQDLLHRVHGGNITKWVLMGGAIGGLCGLLGFVAPATSGGGFNLIPIATAGNFSMGMLVFIFVARVITTLLCFSSGAPGGIFAPMLALGTVLGTAFGMVAVELFPQYHLEAGTFAIAGMGALLAASIRAPLTGIILVLEMTDNYQLILPMIITGLGATLLAQFTGGKPLYSAILARTLAKQEAEQLARSK", "B11": "KtrC (Bacillus subtilis, UniProt P39760); sequence looked up; chain MKKEFAVIGLGRFGGSICKALSEEGVEVMAMDIDEDKVNEYAKIASHAVIGDSTDESVLKNLGLRNFDHVIVAIGENIQASILTTLILKELGVHTITVKAQNDYHEKVLSKIGADHIVHPERDMAKRIAHNIVSNNVLDYLELSEEHSLVEIVANSRLAGNTLLDLDIRAKYGINIVAIKRGKEVIVSPLATEVIHQEDILIVIGSVTDISRFEKRVLHTK", "B12": "RNASE1 mature P114A/H119A (Bos taurus, UniProt P61823); sequence looked up; chain KETAAAKFERQHMDSSTSAASSSNYCNQMMKSRNLTKDRCKPVNTFVHESLADVQAVCSQKNVACKNGQTNCYQSYSTMSITDCRETGSSKYPNCAYKTTQANKHIIVACEGNAYVPVAFDASV", "B13": "CASP2 170-452 D333A/D347A/C370A (Homo sapiens, UniProt P42575); sequence looked up; chain GPVCLQVKPCTPEFYQTHFQLAYRLQSRPRGLALVLSNVHFTGEKELEFRSGGDVDHSTLVTLFKLLGYDVHVLCDQTAQEMQEKLQNFAQLPAHRVTDSCIVALLSHGVEGAIYGVDGKLLQLQEVFQLFDNANCPSLQNKPKMFFIQACRGDETDRGVDQQAGKNHAGSPGCEESAAGKEKLPKMRLPTRSDMICGYAALKGTAAMRNTKRGSWYIEALAQVFSERACDMHVADMLVKVNALIKDREGYAPGTEFHRCKEMSEYCSTLCRHLYLFPGHPPT", "B14": "aqpZ 1-231 W206A (Escherichia coli, UniProt P60844); chain MFRKLAAECFGTFWLVFGGCGSAVLAAGFPELGIGFAGVALAFGLTVLTMAFAVGHISGGHFNPAVTIGLWAGGRFPAKEVVGYVIAQVVGGIVAAALLYLIASGKTGFDAAASGFASNGYGEHSPGGYSMLSALVVELVLSAGFLLVIHGATDKFAPAGFAPIAIGLALTLIHLISIPVTNTSVNPARSTAVAIFQGGWALEQLAFFWVVPIVGGIIGGLIYRTLLEKRD", "B15": "RPRD1B (Homo sapiens, UniProt Q9NQG5); chain MSSFSESALEKKLSELSNSQQSVQTLSLWLIHHRKHAGPIVSVWHRELRKAKSNRKLTFLYLANDVIQNSKRKGPEFTREFESVLVDAFSHVAREADEGCKKPLERLLNIWQERSVYGGEFIQQLKLSMEDSKSPPPKATEEKKSLKRTFQQIQEEEDDDYPGSYSPQDPSAGPLLTEELIKALQDLENAASGDATVRQKIASLPQEVQDVSLLEKITDKEAAERLSKTVDEACLLLAEYNGRLAAELEDRRQLARMLVEYTQNQKDVLSEKEKKLEEYKQKLARVTQVRKELKSHIQSLPDLSLLPNVTGGLAPLPSAGDLFSTD", "B16": "HSPD1 mature V72I (Homo sapiens, UniProt P10809); sequence looked up; chain AKDVKFGADARALMLQGVDLLADAVAVTMGPKGRTVIIEQSWGSPKVTKDGVTVAKSIDLKDKYKNIGAKLIQDVANNTNEEAGDGTTTATVLARSIAKEGFEKISKGANPVEIRRGVMLAVDAVIAELKKQSKPVTTPEEIAQVATISANGDKEIGNIISDAMKKVGRKGVITVKDGKTLNDELEIIEGMKFDRGYISPYFINTSKGQKCEFQDAYVLLSEKKISSIQSIVPALEIANAHRKPLVIIAEDVDGEALSTLVLNRLKVGLQVVAVKAPGFGDNRKNQLKDMAIATGGAVFGEEGLTLNLEDVQPHDLGKVGEVIVTKDDAMLLKGKGDKAQIEKRIQEIIEQLDVTTSEYEKEKLNERLAKLSDGVAVLKVGGTSDVEVNEKKDRVTDALNATRAAVEEGIVLGGGCALLRCIPALDSLTPANEDQKIGIEIIKRTLKIPAMTIAKNAGVEGSLIVEKIMQSSSEVGYDAMAGDFVNMVEKGIIDPTKVVRTALLDAAGVASLLTTAEVVVTEIPKEEKDPGMGAMGGMGGGMGGGMF", "note": "Each line is one published result; not all experiments were run side by side."}
{"Sequence": "B1 (SOAT1)", "method": "native gel", "subunits per oligomer": "> 4"}
{"Sequence": "B2 (SPA2 389-535)", "method": "mass photometry", "subunits per oligomer": 3}
{"Sequence": "B3 (clcA 1-465)", "method": "SEC", "subunits per oligomer": 2}
{"Sequence": "B4 (REC107 138-224)", "method": "SEC-SAXS", "subunits per oligomer": 4}
{"Sequence": "B5 (sso0001 1-202 C188A)", "method": "SEC", "subunits per oligomer": "5 protomers"}
{"Sequence": "B6 (ITM2B 113-231)", "method": "cryo-EM", "subunits per oligomer": 12}
{"Sequence": "B7 (GGPS1 Y246D)", "method": "SEC-MALS", "subunits per oligomer": 2}
{"Sequence": "B8 (Cas11)", "method": "SEC", "subunits per oligomer": 2}
{"Sequence": "B9 (Per2 1-320)", "method": "SEC", "subunits per oligomer": 2}
{"Sequence": "B10 (clcA 1-465 C85A/H234C/L198A)", "method": "SEC", "subunits per oligomer": 2}
{"Sequence": "B11 (KtrC)", "method": "crystal structure", "subunits per oligomer": 8}
{"Sequence": "MKGMSKMPAFALAWPREVLDLVRKVAEENGRSVNSEIYQRVMESFKKEGRIGA (Arc repressor 1-53 Q9A/N11A/R13A (P22 phage, UniProt P03050))", "method": "SEC", "subunits per oligomer": 2}
{"Sequence": "B12 (RNASE1 mature P114A/H119A)", "method": "SEC", "subunits per oligomer": 2}
{"Sequence": "B13", "method": "SEC", "subunits per oligomer": 2}
{"Sequence": "B14 (aqpZ 1-231 W206A)", "method": "native MS", "subunits per oligomer": 4}
{"Sequence": "B15 (RPRD1B)", "method": "AUC", "temperature": "4 °C", "subunits per oligomer": 2}
{"Sequence": "B16 (HSPD1 mature V72I)", "method": "cryo-EM", "subunits per oligomer": 7}
{"note": "A few entries again:"}
{"Sequence": "B4 (REC107 138-224)", "method": "SEC-SAXS", "subunits per oligomer": 4}
{"Sequence": "B15 (RPRD1B)", "method": "AUC", "temperature": "4 °C", "subunits per oligomer": 2}
